{"data": "Published values gathered from unrelated publications", "note": "A part holds a random share of what one study measured. Values joined by “and” are separate records of one study, mostly repeats; a detail may differ.", "sequence of UniProt Q92918 (whole entry, looked up)": "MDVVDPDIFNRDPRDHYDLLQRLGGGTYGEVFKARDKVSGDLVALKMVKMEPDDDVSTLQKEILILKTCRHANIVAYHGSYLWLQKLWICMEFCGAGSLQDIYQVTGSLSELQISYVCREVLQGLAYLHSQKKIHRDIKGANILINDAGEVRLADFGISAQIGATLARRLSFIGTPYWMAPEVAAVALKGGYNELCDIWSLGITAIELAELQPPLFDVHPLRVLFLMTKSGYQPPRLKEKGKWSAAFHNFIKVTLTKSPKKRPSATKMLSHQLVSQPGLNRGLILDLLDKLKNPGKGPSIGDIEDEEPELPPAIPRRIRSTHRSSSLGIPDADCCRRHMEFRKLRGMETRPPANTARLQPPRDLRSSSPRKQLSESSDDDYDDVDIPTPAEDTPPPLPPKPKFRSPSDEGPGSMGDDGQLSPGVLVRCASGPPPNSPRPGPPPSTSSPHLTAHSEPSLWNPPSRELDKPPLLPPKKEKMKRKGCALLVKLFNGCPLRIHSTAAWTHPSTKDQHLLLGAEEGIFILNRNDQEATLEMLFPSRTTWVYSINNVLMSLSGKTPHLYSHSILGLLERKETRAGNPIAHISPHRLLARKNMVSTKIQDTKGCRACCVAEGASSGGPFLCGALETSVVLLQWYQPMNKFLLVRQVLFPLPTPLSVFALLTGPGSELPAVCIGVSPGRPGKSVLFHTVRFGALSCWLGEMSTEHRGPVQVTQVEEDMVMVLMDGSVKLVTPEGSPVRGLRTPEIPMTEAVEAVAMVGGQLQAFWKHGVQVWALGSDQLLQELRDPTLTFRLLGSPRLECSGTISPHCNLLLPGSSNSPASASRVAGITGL", "sequence of UniProt Q9H3Y6 (whole entry, looked up)": "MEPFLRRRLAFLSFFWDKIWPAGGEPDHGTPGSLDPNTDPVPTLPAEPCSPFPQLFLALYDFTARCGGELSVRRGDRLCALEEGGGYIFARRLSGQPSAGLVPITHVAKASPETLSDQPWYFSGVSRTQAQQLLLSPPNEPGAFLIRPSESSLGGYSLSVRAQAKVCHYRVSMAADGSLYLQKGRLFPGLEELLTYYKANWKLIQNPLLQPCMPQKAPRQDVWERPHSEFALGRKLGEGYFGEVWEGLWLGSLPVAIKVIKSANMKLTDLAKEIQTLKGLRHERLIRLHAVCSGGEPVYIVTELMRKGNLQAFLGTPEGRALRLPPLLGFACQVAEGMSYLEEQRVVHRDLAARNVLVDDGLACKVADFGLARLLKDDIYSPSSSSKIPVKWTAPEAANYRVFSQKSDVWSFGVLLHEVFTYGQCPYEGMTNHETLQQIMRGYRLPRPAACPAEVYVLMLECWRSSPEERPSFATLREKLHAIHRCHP"}
{"data": "Series 1", "target": "DNA polymerase theta, ATPase domain (POLQ, Homo sapiens, UniProt O75417)", "read-out": "enzyme activity", "action": "inhibitor", "concentration": "77 µM", "relative to": "untreated", "sequence of UniProt O75417 (whole entry, unmodified, looked up)": "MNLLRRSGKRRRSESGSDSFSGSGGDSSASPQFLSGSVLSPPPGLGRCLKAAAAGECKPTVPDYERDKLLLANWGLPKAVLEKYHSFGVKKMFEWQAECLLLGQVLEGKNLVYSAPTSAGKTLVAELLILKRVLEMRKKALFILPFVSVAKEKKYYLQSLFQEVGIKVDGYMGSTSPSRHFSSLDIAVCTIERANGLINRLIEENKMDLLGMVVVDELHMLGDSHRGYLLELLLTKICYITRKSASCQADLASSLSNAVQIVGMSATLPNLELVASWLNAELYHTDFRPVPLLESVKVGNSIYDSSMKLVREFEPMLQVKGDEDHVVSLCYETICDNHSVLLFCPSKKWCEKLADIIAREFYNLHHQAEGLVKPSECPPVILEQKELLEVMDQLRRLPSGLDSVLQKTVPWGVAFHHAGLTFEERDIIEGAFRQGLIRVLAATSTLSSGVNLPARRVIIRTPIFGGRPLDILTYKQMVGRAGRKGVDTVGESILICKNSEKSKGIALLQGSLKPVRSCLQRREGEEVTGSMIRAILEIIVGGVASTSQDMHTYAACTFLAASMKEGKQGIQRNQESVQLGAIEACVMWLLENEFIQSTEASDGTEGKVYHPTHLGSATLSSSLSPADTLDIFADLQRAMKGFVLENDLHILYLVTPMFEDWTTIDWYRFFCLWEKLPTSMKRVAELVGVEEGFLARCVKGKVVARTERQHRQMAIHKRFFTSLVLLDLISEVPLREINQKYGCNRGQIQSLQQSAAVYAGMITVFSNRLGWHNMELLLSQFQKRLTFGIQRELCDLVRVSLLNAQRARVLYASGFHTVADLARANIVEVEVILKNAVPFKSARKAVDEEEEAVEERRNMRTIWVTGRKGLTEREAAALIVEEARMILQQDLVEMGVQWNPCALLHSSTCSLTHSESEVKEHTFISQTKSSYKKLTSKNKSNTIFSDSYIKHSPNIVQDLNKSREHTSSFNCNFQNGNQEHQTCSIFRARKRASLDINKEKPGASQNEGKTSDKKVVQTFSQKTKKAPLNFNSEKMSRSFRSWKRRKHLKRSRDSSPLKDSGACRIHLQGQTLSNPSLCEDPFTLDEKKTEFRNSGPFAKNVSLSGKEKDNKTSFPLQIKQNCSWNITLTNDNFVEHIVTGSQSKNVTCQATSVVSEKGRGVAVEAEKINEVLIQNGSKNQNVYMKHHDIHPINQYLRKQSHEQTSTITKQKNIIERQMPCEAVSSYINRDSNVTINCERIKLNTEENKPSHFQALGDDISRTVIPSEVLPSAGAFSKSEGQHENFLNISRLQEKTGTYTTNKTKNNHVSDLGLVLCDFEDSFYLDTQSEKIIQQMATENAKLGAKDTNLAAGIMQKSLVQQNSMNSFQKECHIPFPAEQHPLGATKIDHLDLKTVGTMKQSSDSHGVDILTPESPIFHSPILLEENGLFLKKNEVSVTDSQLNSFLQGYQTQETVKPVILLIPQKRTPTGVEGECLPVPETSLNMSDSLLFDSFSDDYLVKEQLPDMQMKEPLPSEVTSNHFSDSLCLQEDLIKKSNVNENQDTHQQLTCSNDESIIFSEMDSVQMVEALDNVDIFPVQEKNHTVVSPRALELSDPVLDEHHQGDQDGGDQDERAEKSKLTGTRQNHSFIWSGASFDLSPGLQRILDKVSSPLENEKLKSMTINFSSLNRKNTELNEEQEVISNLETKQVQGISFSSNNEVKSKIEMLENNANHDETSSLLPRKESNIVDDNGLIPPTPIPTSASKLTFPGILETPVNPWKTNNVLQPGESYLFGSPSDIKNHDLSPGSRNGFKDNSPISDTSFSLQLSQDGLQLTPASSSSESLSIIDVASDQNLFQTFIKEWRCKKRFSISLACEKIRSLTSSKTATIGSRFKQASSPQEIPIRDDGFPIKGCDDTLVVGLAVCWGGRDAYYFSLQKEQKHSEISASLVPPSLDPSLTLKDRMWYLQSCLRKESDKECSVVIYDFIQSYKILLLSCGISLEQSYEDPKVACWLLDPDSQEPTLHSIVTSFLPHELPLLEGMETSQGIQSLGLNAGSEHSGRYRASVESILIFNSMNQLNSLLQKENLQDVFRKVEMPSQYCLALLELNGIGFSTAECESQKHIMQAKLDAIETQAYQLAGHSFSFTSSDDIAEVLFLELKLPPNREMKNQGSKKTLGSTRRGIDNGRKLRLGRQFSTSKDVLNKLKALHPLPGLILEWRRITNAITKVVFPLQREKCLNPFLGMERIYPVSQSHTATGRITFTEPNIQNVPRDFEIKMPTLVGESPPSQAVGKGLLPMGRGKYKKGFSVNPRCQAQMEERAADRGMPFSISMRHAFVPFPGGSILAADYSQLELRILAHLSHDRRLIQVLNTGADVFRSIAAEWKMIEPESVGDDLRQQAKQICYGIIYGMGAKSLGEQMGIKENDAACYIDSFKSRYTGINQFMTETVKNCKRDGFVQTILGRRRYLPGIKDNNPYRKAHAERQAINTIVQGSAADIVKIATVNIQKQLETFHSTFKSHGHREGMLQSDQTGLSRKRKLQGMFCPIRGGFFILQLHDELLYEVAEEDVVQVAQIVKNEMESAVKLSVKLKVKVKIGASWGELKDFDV"}
{"Compound": "COC(=O)C(N)Cc1ccc(Cl)cc1 (racemic)", "remaining activity": "93.3%"}
{"Compound": "Oc1ncnc2[nH]ncc12", "remaining activity": "91.5% and 91.4%"}
{"Compound": "CO[C@H]1/C=C/O[C@@]2(C)Oc3c(C)c(O)c4c(O)c(c(/C=N/N5CCN(C6CCCC6)CC5)c(O)c4c3C2=O)NC(=O)/C(C)=C\\C=C\\[C@H](C)[C@H](O)[C@@H](C)[C@@H](O)[C@@H](C)[C@H](OC(C)=O)[C@@H]1C", "remaining activity": "89.1%"}
{"Compound": "CC[C@]12CCCN3CCc4c(n(c5ccccc45)[C@@](O)(C(=O)OC)C1)[C@@H]32", "remaining activity": "98.5%"}
{"Compound": "Clc1ccc(C(Cn2ccnc2)OCc2csc3c(Cl)cccc23)c(Cl)c1 (centres unmarked)", "remaining activity": "99.6% and 101%"}
{"Compound": "CC1CNCCN1S(=O)(=O)c1cccc2cnccc12 (centres unmarked)", "remaining activity": "99.7%"}
{"Compound": "O=C(NCCNCC(O)COc1ccc(O)cc1)N1CCOCC1 (centres unmarked)", "remaining activity": "104%"}
{"Compound": "COCCOc1nc(-c2ccc(Cl)c(Cl)c2)n(-c2ccc(NC(=O)CCl)cc2)n1", "remaining activity": "94.4%"}
{"Compound": "COc1ccc2c(c1)c(CC(=O)O)c(C)n2C(=O)c1ccccc1", "remaining activity": "98.1%"}
{"Compound": "NC[C@@H]1O[C@H](O[C@H]2[C@@H](O)[C@H](O[C@@H]3[C@@H](O)[C@H](N)C[C@H](N)[C@H]3O[C@H]3O[C@H](CN)[C@@H](O)[C@H](O)[C@H]3N)O[C@@H]2CO)[C@H](N)[C@@H](O)[C@@H]1O", "remaining activity": "95.9%"}
{"Compound": "C[N+]12CCC(CC1)C(OC(=O)C(O)(c1ccccc1)c1ccccc1)C2 (centres unmarked)", "remaining activity": "97.7%"}
{"Compound": "COc1cc(C=O)ccc1O", "remaining activity": "99.7%"}
{"data": "Series 2", "target": "SRSF protein kinase 2 (SRPK2, Homo sapiens, UniProt P78362)", "read-out": "enzyme activity", "action": "inhibitor", "concentration": "0.5 µM", "relative to": "control", "sequence of UniProt P78362 (whole entry, looked up)": "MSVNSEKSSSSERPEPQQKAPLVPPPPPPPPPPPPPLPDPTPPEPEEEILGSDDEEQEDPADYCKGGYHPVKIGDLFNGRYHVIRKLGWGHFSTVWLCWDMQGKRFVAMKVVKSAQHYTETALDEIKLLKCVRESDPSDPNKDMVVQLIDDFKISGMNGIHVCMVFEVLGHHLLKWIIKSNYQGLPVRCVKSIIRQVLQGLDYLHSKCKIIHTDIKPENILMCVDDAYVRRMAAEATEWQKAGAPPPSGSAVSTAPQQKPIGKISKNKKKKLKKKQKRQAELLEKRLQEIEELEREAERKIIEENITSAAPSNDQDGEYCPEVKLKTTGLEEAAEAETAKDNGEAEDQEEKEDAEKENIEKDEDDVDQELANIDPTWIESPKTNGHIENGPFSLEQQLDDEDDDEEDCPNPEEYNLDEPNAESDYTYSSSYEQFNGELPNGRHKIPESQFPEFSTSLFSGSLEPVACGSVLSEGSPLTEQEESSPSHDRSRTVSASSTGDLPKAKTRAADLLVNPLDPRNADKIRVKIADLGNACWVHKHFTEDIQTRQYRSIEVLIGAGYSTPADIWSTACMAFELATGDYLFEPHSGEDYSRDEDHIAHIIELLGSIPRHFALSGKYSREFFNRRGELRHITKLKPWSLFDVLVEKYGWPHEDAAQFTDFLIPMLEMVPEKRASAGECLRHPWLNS"}
{"Compound": "CN(C)CCCn1cc(C2=C(c3c[nH]c4ccccc34)C(=O)NC2=O)c2ccccc21", "remaining activity [%]": 94.4}
{"Compound": "COc1ccc(-c2cnc3c(-c4ccsc4)cnn3c2)cc1", "remaining activity [%]": 94.1}
{"Compound": "CS(=O)(=O)CCNCc1ccc(-c2ccc3ncnc(Nc4ccc(OCc5cccc(F)c5)c(Cl)c4)c3c2)o1", "remaining activity [%]": 88}
{"Compound": "COc1cc2ncnc(Nc3ccc(OCc4ccccc4)cc3)c2cc1OC", "remaining activity [%]": 92.3}
{"Compound": "C[S+]([O-])c1ccc(-c2nc(-c3ccncc3)c(-c3ccc(F)cc3)[nH]2)cc1 (centres unmarked)", "remaining activity [%]": 102}
{"Compound": "COc1cc2ncnc(N3CCN(C(=O)Nc4ccc(Oc5ccccc5)cc4)CC3)c2cc1OC", "remaining activity [%]": 89.1}
{"Compound": "COc1cc2ncc(-c3ccccc3)nc2cc1OC", "remaining activity [%]": 84.4}
{"Compound": "Cc1ccc(NC(=O)c2ccc(CN3CCN(C)CC3)cc2)cc1Nc1nccc(-c2cccnc2)n1", "remaining activity [%]": 104}
{"Compound": "O=c1cc(N2CCOCC2)oc2c1ccc1ccccc12", "remaining activity [%]": 100}
{"Compound": "Cn1cc(/C=C2\\C(=O)Nc3ccc(S(N)(=O)=O)cc32)c2ccccc21", "remaining activity [%]": 51.4}
{"Compound": "Cc1nc(Nc2ncc(C(=O)Nc3c(C)cccc3Cl)s2)cc(N2CCN(CCO)CC2)n1", "remaining activity [%]": 104}
{"Compound": "CC(=O)O/N=C1/C(c2c(O)[nH]c3cc(Br)ccc23)=Nc2ccccc21", "remaining activity [%]": 96.6}
{"Compound": "CC(C)[C@H](CO)Nc1nc(Nc2cccc(Cl)c2)c2ncn(C(C)C)c2n1", "remaining activity [%]": 53.6}
{"Compound": "O=C(Nc1ccc(Cl)cc1)c1ccccc1NCc1ccncc1", "remaining activity [%]": 85.1}
{"Compound": "CCC(=O)Nc1ccc2ncnc(Nc3cccc(Br)c3)c2c1", "remaining activity [%]": 88.6}
{"Compound": "CCOc1cc2ncnc(Nc3cccc(Br)c3)c2cc1OCC", "remaining activity [%]": 95.6}
{"Compound": "Nc1[nH]nc2nnc(-c3c(-c4ccccc4)nn4ccccc34)cc12", "remaining activity [%]": 73.8}
{"Compound": "COc1ccc(Cl)cc1NC(=O)Nc1cc(C)nc2ccccc12", "remaining activity [%]": 94.9}
{"Compound": "CCN1/C(=C/C(C)=O)Sc2ccc(OC)cc21", "remaining activity [%]": 95.8}
{"Compound": "O=C1NC(=O)/C(=C/c2ccc3nccnc3c2)S1", "remaining activity [%]": 98.2}
{"Compound": "CC(C)c1nn(-c2c(Cl)cccc2Cl)c2nc(Cc3ccc(OCCO)cc3)[nH]c(=O)c12", "remaining activity [%]": 89.2}
{"Compound": "Cn1cnc2cc3c(Nc4cccc(Br)c4)ncnc3cc21", "remaining activity [%]": 97.1}
{"data": "Series 3", "target": "Beta-3 adrenergic receptor (ADRB3, Homo sapiens, UniProt P13945)", "read-out": "binding", "technique": "radioligand binding", "concentration": "10 µM", "sequence of UniProt P13945 (whole entry, looked up)": "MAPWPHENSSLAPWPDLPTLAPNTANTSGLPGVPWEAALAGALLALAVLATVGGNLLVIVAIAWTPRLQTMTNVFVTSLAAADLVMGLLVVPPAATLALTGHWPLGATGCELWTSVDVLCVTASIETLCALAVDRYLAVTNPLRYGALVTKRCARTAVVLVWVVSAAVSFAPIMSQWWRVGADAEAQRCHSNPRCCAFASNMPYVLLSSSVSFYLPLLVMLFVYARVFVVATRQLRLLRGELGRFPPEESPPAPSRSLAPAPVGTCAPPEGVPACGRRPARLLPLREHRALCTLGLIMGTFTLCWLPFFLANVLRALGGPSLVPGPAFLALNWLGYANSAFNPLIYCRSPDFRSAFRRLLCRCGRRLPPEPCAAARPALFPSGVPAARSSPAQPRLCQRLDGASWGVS"}
{"SMILES": "CC(=O)c1c(NS(C)(=O)=O)c2cc(-c3ccc(Cl)cc3)c(-c3ccc(Cl)cc3Cl)nc2n(C)c1=O", "inhibition [%]": 69.3}
{"SMILES": "CC1=C(C#N)C(c2ccc3c(c2)c(NC(=O)c2ccccc2C)nn3C)C(C#N)=C(C)N1", "inhibition [%]": -3.33}
{"SMILES": "CC(=O)Nc1nc(CN2CCC[C@H](Cc3cc(C)nc(C)c3)C2)cs1", "inhibition [%]": -8.59}
{"SMILES": "O=C(NC[C@@H]1[C@H]2CN(C(=O)OCc3cc(C(F)(F)F)cc(C(F)(F)F)c3)C[C@@H]12)c1ccc2[nH]nnc2c1", "inhibition [%]": 31.5}
{"SMILES": "COCc1nc2cnc3cc(-c4c(C)noc4C)c(OC[C@H]4CCNC4)cc3c2n1[C@H](C)c1ccccc1", "inhibition [%]": 10.5}
{"SMILES": "O=C(Nc1cccnn1)N1CCC(=Cc2cccc(Oc3ccc(C(F)(F)F)cn3)c2)CC1", "inhibition [%]": 0.69}
{"SMILES": "CC(=O)N1CCC(c2ccc(C(=O)NC(=N)N)cc2C(F)(F)F)CC1", "inhibition [%]": 5.47}
{"SMILES": "CCOCCn1cc(C(=O)Nc2ccc(-n3nc(-c4cccnc4)cc3C(F)(F)F)cn2)ccc1=O", "inhibition [%]": -18.5}
{"SMILES": "O=C1c2ccc(Nc3ccc(F)cc3F)cc2CCc2ccc(OC[C@H](O)CO)cc21", "inhibition [%]": -12.4}
{"SMILES": "O[C@]1(C(F)(F)F)CCCC[C@H]1Nc1ccc(F)cc1", "inhibition [%]": 31}
{"SMILES": "COc1cccc(CNC(=O)c2nc3scc(COCc4ccc(C(=O)O)cc4)c3c(=O)[nH]2)c1", "inhibition [%]": 7.44}
{"SMILES": "CNC(=O)Nc1ccc2c(c1)[C@]1(CC2)OC(=O)N(CC(=O)N(Cc2ccc(F)cc2)[C@@H](C)C(F)(F)F)C1=O", "inhibition [%]": -12.1}
{"SMILES": "COc1nc2ccc([C@@](O)(c3ccccc3)C3CCN(C(C)=O)CC3)cc2c(Cl)c1Cc1ccc(-n2cccn2)cc1", "inhibition [%]": 39.4}
{"SMILES": "Cc1nc(Cc2cccc(C(F)(F)F)c2)sc1-c1ccc(C(N)=O)nc1", "inhibition [%]": -1.63}
{"SMILES": "COCCc1ccc(-c2c(C)nc3c(N4CCOCC4)ccnn23)cn1", "inhibition [%]": -11.2}
{"SMILES": "Cc1nccc(COC(=O)N2C[C@@H]3[C@@H](CNC(=O)c4ccc5[nH]nnc5c4)[C@@H]3C2)n1", "inhibition [%]": -6.02}
{"SMILES": "CC(C)(O)c1cncc(-c2nc3ccc(F)cc3n2C2CC2)c1", "inhibition [%]": 16.7}
{"SMILES": "Cc1nc(N2CC[C@@H](O)C2)ncc1-c1cc(C(F)(F)F)cc2[nH]ncc12", "inhibition [%]": 20.7}
{"SMILES": "CC(=O)Nc1c(F)cc(C(=O)N[C@H]2CC[C@H](O)CC2)cc1O[C@@H](C)c1ccccc1", "inhibition [%]": 17.5}
{"SMILES": "Cc1nc(C2CCN(C(=O)c3ccc(OC(F)(F)F)cc3N)CC2)c2ncc(N3CCN(C)CC3)cc2n1", "inhibition [%]": -12.6}
{"SMILES": "O=C1CCc2cc(Nc3cc(OC4CCOCC4)c([N+](=O)[O-])cc3Cl)ccc2N1", "inhibition [%]": 7.73}
{"SMILES": "CC(C)CC(=O)N1CCc2nc(-c3ccc(Br)cc3)nc(N(C)Cc3ccccc3)c2C1", "inhibition [%]": 12.3}
{"SMILES": "C[C@@]1(Cc2ccc(C#N)cc2)C(=O)N(c2cc(Cl)cc(Cl)c2)c2ncc(C(=O)NC3(c4nc(C5CCC5)no4)CC3)n21", "inhibition [%]": -16.4}
{"SMILES": "CCCOc1ccc([C@H]2[C@H](C(=O)O)[C@@H](c3ccc4c(c3)OCO4)CN2CC(=O)Nc2c(CC)cccc2CC)cc1", "inhibition [%]": 13.3}
{"SMILES": "CCOC(=O)c1cc2cc(-c3cc(C(=O)NCc4ccc(C(=O)O)cc4)nn3C)ccc2[nH]1", "inhibition [%]": -6.63}
{"data": "Series 4", "SMILES": "Cc1ccc(NC(=O)c2ccnc(C(F)(F)F)c2)cc1-c1cc(OCCO)nc(N2CCOCC2)c1", "concentration": "1 µM"}
{"target": "GRK7 (Homo sapiens, UniProt Q8WTQ7)", "test": "competitive binding panel", "how to read": "relative to: vehicle", "remaining binding [%]": 99}
{"target": "PIK3CA (Homo sapiens, UniProt P42336, E542K)", "test": "competitive binding panel", "how to read": "relative to: vehicle", "remaining binding [%]": 90}
{"target": "MYLK2 (Homo sapiens, UniProt Q9H1R3)", "test": "competitive binding panel", "how to read": "relative to: vehicle", "remaining binding [%]": 98}
{"target": "NEK4 (Homo sapiens, UniProt P51957)", "test": "competitive binding panel", "how to read": "relative to: vehicle", "remaining binding [%]": 99}
{"target": "BMP2K (Homo sapiens, UniProt Q9NSY1)", "test": "competitive binding", "conditions": "BIKE", "remaining binding [%]": 82}
{"target": "PHKG2 (Homo sapiens, UniProt P15735)", "test": "competitive binding panel", "how to read": "relative to: vehicle", "remaining binding [%]": 88}
{"target": "ULK1 (Homo sapiens, UniProt O75385)", "test": "competitive binding panel", "how to read": "relative to: vehicle", "remaining binding [%]": 85}
{"target": "EPHA4 (Homo sapiens, UniProt P54764)", "test": "competitive binding panel", "how to read": "relative to: vehicle", "remaining binding [%]": 85}
{"target": "SBK1 (Homo sapiens, UniProt Q52WX2)", "test": "competitive binding panel", "how to read": "relative to: vehicle", "remaining binding [%]": 68}
{"target": "MAP4K1 (Homo sapiens, UniProt Q92918)", "test": "competitive binding panel, item: HPK1", "how to read": "relative to: vehicle", "remaining binding [%]": 83}
{"target": "CAMK1 (Homo sapiens, UniProt Q14012)", "test": "competitive binding panel", "how to read": "relative to: vehicle", "remaining binding [%]": 100}
{"target": "PAK6 (Homo sapiens, UniProt Q9NQU5)", "test": "competitive binding panel", "how to read": "relative to: vehicle", "remaining binding [%]": 94}
{"target": "SRMS (Homo sapiens, UniProt Q9H3Y6)", "test": "competitive binding panel", "how to read": "relative to: vehicle", "remaining binding [%]": 92}
{"target": "MAPK11 (Homo sapiens, UniProt Q15759)", "test": "competitive binding, scanMAX", "conditions": "p38-beta, 1000 nM", "remaining binding [%]": 34}
{"target": "MAP2K3 (Homo sapiens, UniProt P46734)", "test": "competitive binding panel, item: MEK3", "how to read": "relative to: vehicle", "remaining binding [%]": 77}
{"target": "GRK1 (Homo sapiens, UniProt Q15835)", "test": "competitive binding panel", "how to read": "relative to: vehicle", "remaining binding [%]": 98}
{"target": "KDR (Homo sapiens, UniProt P35968)", "test": "competitive binding", "conditions": "VEGFR2", "remaining binding [%]": 85}
{"target": "CIT (Homo sapiens, UniProt O14578)", "test": "competitive binding panel", "how to read": "relative to: vehicle", "remaining binding [%]": 96}
{"note": "Repeated from above (series 1):"}
{"Compound": "COc1ccc2c(c1)c(CC(=O)O)c(C)n2C(=O)c1ccccc1", "remaining activity": "98.1%"}
{"Compound": "Oc1ncnc2[nH]ncc12", "remaining activity": "91.5% and 91.4%"}
{"Compound": "CC[C@]12CCCN3CCc4c(n(c5ccccc45)[C@@](O)(C(=O)OC)C1)[C@@H]32", "remaining activity": "98.5%"}
{"Compound": "O=C(NCCNCC(O)COc1ccc(O)cc1)N1CCOCC1 (centres unmarked)", "remaining activity": "104%"}
{"Compound": "CO[C@H]1/C=C/O[C@@]2(C)Oc3c(C)c(O)c4c(O)c(c(/C=N/N5CCN(C6CCCC6)CC5)c(O)c4c3C2=O)NC(=O)/C(C)=C\\C=C\\[C@H](C)[C@H](O)[C@@H](C)[C@@H](O)[C@@H](C)[C@H](OC(C)=O)[C@@H]1C", "remaining activity": "89.1%"}
{"Compound": "C[N+]12CCC(CC1)C(OC(=O)C(O)(c1ccccc1)c1ccccc1)C2 (centres unmarked)", "remaining activity": "97.7%"}
{"Compound": "COc1cc(C=O)ccc1O", "remaining activity": "99.7%"}
{"Compound": "Clc1ccc(C(Cn2ccnc2)OCc2csc3c(Cl)cccc23)c(Cl)c1 (centres unmarked)", "remaining activity": "99.6% and 101%"}
{"Compound": "COCCOc1nc(-c2ccc(Cl)c(Cl)c2)n(-c2ccc(NC(=O)CCl)cc2)n1", "remaining activity": "94.4%"}
